Experimental data collected from several papers.
Every numbered part comes from another study and shows a few of its results, in no order.

Set 1
Target: Interferon regulatory factor 7, full length, phosphomimetic (IRF7, Homo sapiens, UniProt Q92985, residues 1-503, S471D/S472D/S475D/S476D/S477D/S483D/S484D/S487D)
UniProt Q92985, sequence (whole entry, unmodified, looked up): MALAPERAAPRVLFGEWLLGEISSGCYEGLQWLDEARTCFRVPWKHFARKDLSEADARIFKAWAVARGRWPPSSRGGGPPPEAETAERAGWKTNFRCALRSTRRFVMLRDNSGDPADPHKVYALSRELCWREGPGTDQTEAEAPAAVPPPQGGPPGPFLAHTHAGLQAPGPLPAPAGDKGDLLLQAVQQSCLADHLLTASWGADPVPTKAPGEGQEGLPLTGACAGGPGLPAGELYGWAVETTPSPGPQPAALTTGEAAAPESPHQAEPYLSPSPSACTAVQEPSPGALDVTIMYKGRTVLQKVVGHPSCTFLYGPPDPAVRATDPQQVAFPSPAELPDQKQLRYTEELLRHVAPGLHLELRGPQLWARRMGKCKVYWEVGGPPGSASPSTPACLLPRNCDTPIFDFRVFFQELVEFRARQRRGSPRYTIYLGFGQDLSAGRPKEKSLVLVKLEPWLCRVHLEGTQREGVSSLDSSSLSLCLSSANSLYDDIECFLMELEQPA
Method: protein-binding microarray
Form: double-stranded DNA, one strand shown
Medium: in vitro
Tested at: 2200 nM top
Setting: 60-bp whole probe
Added: salmon DNA 0.4 mg/ml
Reference: random background probes
Reading: higher = stronger binding
Quantity: fitted relative affinity
Constant ends, left off below: GCCTAGCAC … GTCTTGATTCGCTTGACGCTGCTG
Strand = CTGGCTATTTTATATGCTATGGTGCTA; result = -0.104 z-score
Strand = AACGATATCGGGACTGGAGACGTGCTA; result = 0.142 z-score
Strand = TCAGGTTTCCTACTGCTTTAGTGCTAG; result = 2.14 z-score
Strand = ATAGGTTTCGGTTTCGGTTAGTGCTAG; result = 18 z-score
Strand = AGAAACTTTTTTCTGATTGAGTGCTAG; result = 1.53 z-score
Strand = TGGCCTCTAGGTTTTCTGAAGTGCTAG; result = -0.216 z-score
Strand = TCAACACTAATTTTTACACTGTGCTAG; result = 0.17 z-score
Strand = TTAGGTATCGACTAGCGGTTAGTGCTA; result = -0.136 z-score
Strand = GACGAACTGAGTATCCAGACGTGCTAG; result = -0.0806 z-score
Strand = GGCTCTCAGTGGGCTGCTGGGTGCTAG; result = -0.908 z-score
Strand = TTAGCACTGCTTATCCTTTAGTGCTAG; result = 0.613 z-score
Strand = GACGGTATCGGGACTGGGTACGTGCTA; result = -0.399 z-score
Strand = TACTGTCTGTTTCCTCTTTCTGTGCTA; result = 3.15 z-score
Strand = TTAGGTCTTCTTATCCTTTAGTGCTAG; result = 0.797 z-score
Strand = TCAATTCTCCACTTGTGACTGTGCTAG; result = 1.41 z-score
Strand = TCAACTCTCTTGTCTGGAACTGTGCTA; result = 1.24 z-score
Strand = TTACGTTTCGACTATCGGTTAGTGCTA; result = 5.02 z-score
Strand = GACGGTATCGACTTTCGGGGCGTGCTA; result = 2.14 z-score

Set 2
Target: Centromere-binding protein 1, full length, His-tagged (CBF1, Saccharomyces cerevisiae, UniProt P17106, residues 1-351)
UniProt P17106, sequence (whole entry, looked up): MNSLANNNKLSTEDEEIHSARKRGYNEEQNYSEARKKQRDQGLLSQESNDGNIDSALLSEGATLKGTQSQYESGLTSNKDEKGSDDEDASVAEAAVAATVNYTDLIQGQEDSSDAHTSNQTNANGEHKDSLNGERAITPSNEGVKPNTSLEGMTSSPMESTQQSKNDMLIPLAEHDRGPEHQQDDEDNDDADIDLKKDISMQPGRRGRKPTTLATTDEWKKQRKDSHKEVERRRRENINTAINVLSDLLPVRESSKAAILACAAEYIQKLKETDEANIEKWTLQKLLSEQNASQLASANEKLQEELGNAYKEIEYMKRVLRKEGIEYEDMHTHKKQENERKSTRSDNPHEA
Method: competition protein-binding microarray
Form: double-stranded DNA, one strand shown
Medium: in vitro
Tested at: 2 µM
Setting: whole 60-bp probe, lowest competitor level
Added: Pho4 competitor, 0.05 µM
Reading: higher = stronger binding
Quantity: fluorescence intensity
Strand = ACACCTGACTCGGACCATGTGGCTAAGTTTGTTTTGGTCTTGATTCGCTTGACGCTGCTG; result = 231 a.u.
Strand = CTTTCCCGATCTTGTCACGCTACTTTAGCACATTTGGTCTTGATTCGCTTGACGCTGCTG; result = 277 a.u.
Strand = CCCAGCCCTGGGAGCCACGTGATCCCGGTCCTGGTTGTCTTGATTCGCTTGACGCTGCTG; result = 4170 a.u.
Strand = CTTCTGTAAATTTGTCACTGGACTTGACGCGCCCCGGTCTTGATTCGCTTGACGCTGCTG; result = 97.7 a.u.
Strand = GGAGATGATTTAACACCCGTGGAACTGAAAAAAGCCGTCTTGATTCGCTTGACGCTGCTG; result = 84.1 a.u.
Strand = AAATTACTAAGTTGTCACGAGACTTACCCCGTATGAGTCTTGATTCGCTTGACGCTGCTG; result = 1490 a.u.
Strand = TGCGCAACAACTTGGCAGGTGGGTGTATGTCTAGAAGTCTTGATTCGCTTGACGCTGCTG; result = 99.2 a.u.
Strand = GAAGATGACTGCTTCCTCGTGTTGATCCATTATTTTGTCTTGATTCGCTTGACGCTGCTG; result = 84.4 a.u.
Strand = CGGGGTTAAGTTTGATAGGTGGGTGGCTTGCAGCAGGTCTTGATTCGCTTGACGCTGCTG; result = 63.1 a.u.
Strand = GTCTTGTCTCATTGAAAAGTGGGTGTCCCCACTTCAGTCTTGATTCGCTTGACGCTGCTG; result = 69.5 a.u.
Strand = CTTTTGGGCGGCCATCACGCAGATGTGGTGTTTGAGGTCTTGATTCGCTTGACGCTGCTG; result = 75.4 a.u.
Strand = CATACCCAACCTTGTTCTGTGGGTGAAGATATTTGTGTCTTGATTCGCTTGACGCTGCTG; result = 71.4 a.u.
Strand = CATACCCAACCTTGGCCGGTGGGTGAAGATATTTGTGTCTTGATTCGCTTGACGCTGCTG; result = 58.6 a.u.
Strand = AAACGGGAACGAGCGTTCGTGCGGAGTGATGGTTAGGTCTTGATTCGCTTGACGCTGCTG; result = 59.8 a.u.
Strand = GTATTGTAAGACTGTCATGTGATTGCTGTCGCGTTCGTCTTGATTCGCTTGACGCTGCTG; result = 1420 a.u.
Strand = CTAACGAAGGTTTGTCACCCAACTTACAAGCCAAGTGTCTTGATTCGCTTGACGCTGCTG; result = 75.5 a.u.
Strand = CTAACGAAGGTTTGGAGCGTGGGTGACAAGCCAAGTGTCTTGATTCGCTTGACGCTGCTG; result = 52.2 a.u.
Strand = TTGCGGTATAGGGTCCACGTGATGGGAATAAAAGCAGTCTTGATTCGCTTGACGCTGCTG; result = 5770 a.u.
Strand = GTAATACATTTTCATCACATGAGAGTGTTCATTCAAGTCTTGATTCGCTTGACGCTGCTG; result = 367 a.u.
Strand = CGGCAATTGCTGAGCACCGTGCGATGTTATGATCGCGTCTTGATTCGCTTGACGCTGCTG; result = 77.7 a.u.
Strand = AACCTGTCCAAATACCACATGCTTTCCATCGAGCCAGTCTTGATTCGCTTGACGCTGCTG; result = 103 a.u.
Strand = AGTGTCTCCTCAGACGACGTGTCGGTTTTGTATATCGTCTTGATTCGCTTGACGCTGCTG; result = 70.8 a.u.
Strand = TGCGCAACAACTTGTTCAGTGGGTGTATGTCTAGAAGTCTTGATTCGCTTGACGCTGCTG; result = 67.2 a.u.

Set 3
Target: Histone acetyltransferase KAT6A, winged helix 2, GST fusion (KAT6A, Homo sapiens, UniProt Q92794, residues 85-181)
Method: protein binding microarray
Form: double-stranded DNA, one strand shown
Medium: in vitro
Tested at: not given
Setting: 8-mer, flanks averaged, mean of 2 arrays, mostly near background
Reference: not given
Reading: higher = stronger binding
Quantity: E-score
Construct (chain): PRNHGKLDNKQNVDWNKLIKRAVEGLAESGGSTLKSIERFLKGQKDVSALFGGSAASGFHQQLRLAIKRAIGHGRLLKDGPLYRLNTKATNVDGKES
Strand = AATCGGCT; result = 0.108
Strand = GCGTAACC; result = -0.178
Strand = CACCTAAA; result = 0.0554
Strand = GTGAGACA; result = -0.122
Strand = CCGTGCAA; result = 0.0368
Strand = AACACAAC; result = 0.0372
Strand = ATATCATA; result = -0.0656
Strand = ACATGACC; result = -0.239
Strand = AGCCCGAT; result = 0.0541
Strand = CGTTGTGC; result = 0.136
Strand = GACGTAGC; result = -0.081
Strand = CCGTGAGG; result = -0.0339
Strand = CCCCCTCA; result = -0.146
Strand = CCCCACGC; result = -0.00504
Strand = ATGGTTAG; result = -0.0897
Strand = ACCACAAG; result = 0.0192
Strand = GAACAGGC; result = -0.044
Strand = CCGGCACC; result = 0.197
Strand = GCACTTCA; result = -0.00352
Strand = CCATAAAC; result = -0.181
Strand = AGTAGACC; result = -0.0196
Strand = AACCAATA; result = 0.0687
Strand = ATGTACTA; result = -0.0759
Strand = AAGCGCAA; result = 0.101
Strand = CTTGAGAC; result = -0.233

Set 4
Target: RNA binding protein fox-1 homolog 2, RRM domain, GST-SBP tag (RBFOX2, Homo sapiens, UniProt O43251-10, residues 100-194)
Method: RNA Bind-n-Seq
Form: RNA
Medium: in vitro
Tested at: 365 nM
Setting: natural RNA segment, single round, ends assumed
Reference: no-protein control
Reading: higher = stronger binding
Quantity: RBNS enrichment (R)
Target sequence (chain): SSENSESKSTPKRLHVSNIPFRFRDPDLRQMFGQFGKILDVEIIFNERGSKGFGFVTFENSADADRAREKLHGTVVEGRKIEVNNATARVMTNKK
Strand = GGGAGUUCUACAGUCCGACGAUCCCUUCUCCCAGGGCCCGGCUACCCAGGGAGGAGGAGUCUGGUGUAGCCAACAUUCCUGCCCUAACCCUGCCCAUCACCAGCUGGCUGGGCUGGUAUUUAUCUGCAAGGUUUGGAAUUCUCGGGUGCCAA; result = 0.407
Strand = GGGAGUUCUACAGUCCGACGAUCGAUGUUUGCCUGUCCGCUUUAUCUUUGUAGUACAUGAACAGUUCAGCCUUAGACUAUGUAACUGUUUUCUCAUCCUUAGCUGAAAAUGAGGGGCCUACUGUAUUGCGAGAUGGAAUUCUCGGGUGCCAA; result = 0.567
Strand = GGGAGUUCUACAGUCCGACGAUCGUUACGUAAGAAGGGUCUUUGGUAGAAGAAAUUGCUCGUGUUUACACAGCUGUGGAUGCCAUGAAGAAGCCGUGGACAUUCUUGGUGGGUGAAGCCCUAGACGAUGGAAUUGGAAUUCUCGGGUGCCAA; result = 0.849
Strand = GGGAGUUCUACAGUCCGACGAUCUGGUCAAGCUUGUAAAUAACUUUUUUUACAUUUUAAUCUUUUCCAUUAAUUAAGAGGUUGAAAAGAAGUGCAGUGUAAGAAAACCCAGCAUUUUAAUUACUUGCAAAUUAUGGAAUUCUCGGGUGCCAA; result = 0.826
Strand = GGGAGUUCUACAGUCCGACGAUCCCGAGCAGUUAGAGAAAAGCCGCCUCACACUGUGUUUCACACUCGGGCAGUAAGUAUUGUAACGCCGGCCUCUUUUUGGGUCAUUUACUAGAUUAGGACUAUUACAUCCAUGGAAUUCUCGGGUGCCAA; result = 0.264
Strand = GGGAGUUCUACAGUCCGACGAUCCACCAUGGAGCCGAAGCCCAGAGACCCUGUCUCAGGCCUACGCAACAGCCACGAAAUAUUCUGAAGGAAAAUGAAACCAAUUAAGAAGACAAAGCCUAGGGAGGGACUGGUGGAAUUCUCGGGUGCCAA; result = 0.316
Strand = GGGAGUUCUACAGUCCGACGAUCCAUCUCUUCCUUCCAUGUCUUGAUGUUAUGCAGGAAGUACAGACGUACUUUAAAUUUUUGUUAUGAAAUAAAAAAAAGAUGGGUUUUGUAAAAAUAAAAAAAAAAUAUUUUGGAAUUCUCGGGUGCCAA; result = 4.82
Strand = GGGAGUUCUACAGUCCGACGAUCGACAGAUGGUCCUUAACUACUCAAUGACAGAGGCAGUUACUGUGAGAGACUUCUAGGAAUCUUUUUCUUCUCAUAGCGAAGUCAAAGCUCUCUCUGAAUGUACUGUGUGAUGGAAUUCUCGGGUGCCAA; result = 0.62
Strand = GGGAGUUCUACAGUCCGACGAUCGCUGCUUCAGUAAGAAAAUGUAGAAACUGGAAUAUGAGCCCAGUAAGAGUCCCUGAGAGAGCUUCAGCUUAUAACAAGGCUAAUUUUAGGUUGUACGUCAUUCUCGAUGUUGGAAUUCUCGGGUGCCAA; result = 0.587
Strand = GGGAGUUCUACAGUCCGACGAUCAGGCCCGCUUUGAUAUUCAUUCAGUCUGUAGUAGUAACUUCAGAAAGACCUGGAGGACCUUUCCCCUAGGCACCUACACUCCUCCAUUGUCUGUCUAUGUUGUGCCUUAGUGGAAUUCUCGGGUGCCAA; result = 0.46
Strand = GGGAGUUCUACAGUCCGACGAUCACGGCGCUGAGGGUCGGCAGGCUGGGGCUAUUUUUACCUCCUGACUCCCUUGCUGGGCACUACCCCCCCACCUGAUACCCUGCUGUGUAGUCUGACACUGGAGUCCCCAAUGGAAUUCUCGGGUGCCAA; result = 0.485
Strand = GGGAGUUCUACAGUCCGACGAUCUUCAUGCUUAUAUAGAAUCUGAGUUCAUGCUGAAUACUUUUCAGCCAAUAAUUUAUAGCCUUUCCCUUAAAUCAAGAUUGAGUUUAAAAUUAUAGUUUGUCUUUUGUCUUUGGAAUUCUCGGGUGCCAA; result = 0.472
